Assay results of several laboratories.
Target: Calcium/calmodulin-dependent protein kinase type II subunit delta (CAMK2D, Homo sapiens, UniProt Q13557)

SMILES | test | system | conditions | how to read | quantity | value
Cc1cccc(O[C@H]2CCC[C@@H](C(C)CNCc3ccncc3)C2)c1 (relative stereo) | cell-free assay, inhibitor |  | 1 µM |  | inhibition | 2%
NC(=O)C[C@H]1CCc2sc3ncnc(O[C@H]4CC[C@H](N5CCOCC5)CC4)c3c21 | enzyme activity, inhibitor |  | 10 µM |  | inhibition | 15%
COc1ccc(NC(=O)Nc2ccc3c(c2)C(=O)N(C(C)CO)CC(C)C(CN(C)Cc2ccc4c(c2)OCO4)O3)cc1 (stereo not drawn) | kinase activity, KinaseProfiler |  | 0.03 µM, species human | baseline: control | remaining activity | 105%
O=C=[N][Ru-4]123([n]4c5ccc(O)cc5c5c6c(c7cc(F)c[n+]1c7c54)C(=O)NC6=O)[S+]1CC[S+]2CC[S+]3CC1 (stereo not drawn) | enzyme activity |  | 100 nM, human enzyme, together with: 10 µM ATP | baseline: untreated | remaining activity | 23%
C=CC(=O)Nc1cccc(-c2cnc3[nH]cc(C(=O)NC(C)(C)C)c3n2)c1 | enzyme activity, inhibitor |  | 0.1 µM |  | inhibition | -1%
COc1c(OCCCN2CCOCC2)ccc2c1N=C(NC(=O)c1cnc(N)nc1)N1CCN=C21 | kinase activity, inhibitor |  | 1 µM | baseline: untreated control | remaining activity | 93%
CN1CC[C@@H](COc2cnc(C#N)cc2-c2ccn3nc(NC(=O)C4CC4)cc3c2)C1 | enzyme activity, inhibitor |  | 1 µM |  | inhibition | 16%
COc1c(Cl)cccc1Nc1c(-c2ccncc2C#C[C@@]2(C)CCCN2C(=O)/C=C/CN(C)C)[nH]c2c1C(=O)NCC2 | cell-free assay, competition with immobilised ligand |  | 3 µM |  | remaining binding | 95%
Cc1ccc(-c2c(/C=C(\C#N)C(=O)NC(C)C)n(CCCO)c3ncnc(N)c23)cc1 | cell-free assay, competition with immobilised ligand |  | 1 µM |  | remaining binding | 73%
CC(C)=CC1OC(C)(C)C2C=C3C(=O)C(Cl)=CC(O)C3C3C(O)C4OC4C(=O)C132 (stereo not drawn) | cell-free assay, competition with immobilised ligand |  | 10 µM |  | remaining binding | 90%
CN1CCN(Cc2ccc(-c3ccc(CO[C@H]4CCC[C@@H]4NC(=O)c4cc(-c5cnn(C)c5)cnc4N)cc3)cc2)CC1 | enzyme activity, inhibitor |  | 0.1 µM |  | inhibition | 8%
COc1cc(Nc2nc(C)cc(-c3cnn4nc(OC)ccc34)n2)cc(C(F)(F)F)c1 | inhibitor |  | 1 µM | baseline: control | remaining activity | 100%
CCn1cc(C(=O)O)c(=O)c2c(N)c(F)c(NC3CCCCC3)cc21 | kinase activity |  | 0.1 µM, together with: ATP at Km |  | inhibition | -9%
CNC(=O)C1CCN(c2cc(C)c(F)cc2NC(=O)c2ccc(-c3cc(O)ccc3C)c(C)c2)CC1 | binding, competition with immobilised ligand |  | 1 µM |  | remaining binding | 85%
CS(=O)(=O)Nc1cccc(-c2csc3cnc(Nc4ccc(N5CCN(CCCCCOc6cccc7c6C(=O)N(C6CCC(=O)NC6=O)C7=O)CC5)cc4)nc23)c1 (stereo not drawn) | probe labelling, inhibitor, KiNativ chemoproteomics | MOLT-4 | 1 µM |  | inhibition | -10.7%

A few entries again:
SMILES | test | system | conditions | how to read | quantity | value
O=C=[N][Ru-4]123([n]4c5ccc(O)cc5c5c6c(c7cc(F)c[n+]1c7c54)C(=O)NC6=O)[S+]1CC[S+]2CC[S+]3CC1 (stereo not drawn) | enzyme activity |  | 100 nM, human enzyme, together with: 10 µM ATP | baseline: untreated | remaining activity | 23%
C=CC(=O)Nc1cccc(-c2cnc3[nH]cc(C(=O)NC(C)(C)C)c3n2)c1 | enzyme activity, inhibitor |  | 0.1 µM |  | inhibition | -1%
